{"data": "Experimental data from different studies", "cell line": "PANC-1", "note": "Protocols differ between the studies behind these lines. pEC50, pIC50: −log10 of the molar value."}
{"SMILES": "CCN(C(=O)c1cc(F)ccc1Oc1nncnc1N1CCC2(C1)CN([C@H](CCCN(C)CCOC)C(C)C)C2)C(C)C", "assay": "cell growth or viability", "setting": "72 h", "endpoint": "GI50", "value": "> 10000 nM"}
{"SMILES": "CCOc1ccccc1-n1c(CN2CCNCC2)cc2ccccc2c1=O", "assay": "cell growth or viability, ATP luminescence", "setting": "72 h", "endpoint": "pIC50", "value": "< 5.00"}
{"SMILES": "CNS(=O)(=O)Nc1nccc(Cc2c(C)c3ccc(Oc4ncccc4F)cc3oc2=O)c1F", "assay": "cell viability", "setting": "7 days", "endpoint": "pIC50", "value": "< 6.00"}
{"SMILES": "CC(C)C[C@@H](/C=C/CC(=O)N1CCC[C@H]1C(=O)N[C@H](C(=O)N[C@@H](CCCNC(=O)OCc1ccccc1)C(=O)NC1CC(C)(C)N([O])C(C)(C)C1)C(C)C)NC(=O)OC(C)(C)C", "assay": "protection from ferroptosis, PrestoBlue", "setting": "24 h, with: erastin 10 µM", "endpoint": "pEC50", "value": 6.76}
{"SMILES": "CC(C)c1ccc(N(C)c2ccc3c(c2)OCC[C@H]3CNc2cnccc2C(=O)O)cc1", "assay": "cell growth or viability, ATP luminescence", "setting": "7 days", "endpoint": "pIC50", "value": 7.16}
{"SMILES": "CC(C)C[C@@H](/C=C/[C@H](Cc1ccccc1)C(=O)N1CCC[C@H]1C(=O)N[C@H](C(=O)N[C@@H](CCCNC(=O)OCc1ccccc1)C(=O)NC1CC(C)(C)N([O])C(C)(C)C1)C(C)C)NC(=O)OCC[S+]([O-])CC1(C)COC1 (some centres unmarked)", "assay": "protection from ferroptosis, PrestoBlue", "setting": "24 h, with: erastin 10 µM", "endpoint": "pEC50", "value": 5.86}
{"SMILES": "CCOc1cncc(-c2ccc(NC(=O)C3(c4ccnc(NS(=O)(=O)C5CC5)n4)CCOCC3)nc2)n1", "assay": "cell growth or viability, ATP luminescence", "setting": "72 h", "endpoint": "pIC50", "value": 6.29}
{"SMILES": "O=C(NCc1cc(F)cc(F)c1)[C@@]1(O)CCN(c2ccc3[nH]ccc3c2)C1=O", "assay": "cell growth or viability", "endpoint": "pIC50", "value": 4.85}
{"SMILES": "Cn1ncc(-c2ccc3c(=O)[nH]nc(CN)c3c2)c1-c1c(F)c(Cl)cc(OC2CC2)c1C#N", "assay": "cell viability, inhibitor, CellTiter-Glo", "setting": "120 h, baseline-subtracted", "endpoint": "pIC50", "value": 7.22}
{"SMILES": "CCOc1ccccc1-n1c(CN2CCN(C(C)=O)CC2)nc2ccccc2c1=O", "assay": "cell growth or viability, ATP luminescence", "setting": "72 h", "endpoint": "pIC50", "value": "< 5.00"}
{"SMILES": "CC(C)(C)C(=O)OCOP(=O)(C/C=C\\Cn1c[n+](Cc2cc3cc(Cl)ccc3[nH]2)c2c(=O)[nH]c(N)nc21)OCOC(=O)C(C)(C)C", "assay": "cell growth or viability", "endpoint": "pEC50", "value": 4.16}
{"note": "A few entries again:"}
{"SMILES": "CC(C)C[C@@H](/C=C/[C@H](Cc1ccccc1)C(=O)N1CCC[C@H]1C(=O)N[C@H](C(=O)N[C@@H](CCCNC(=O)OCc1ccccc1)C(=O)NC1CC(C)(C)N([O])C(C)(C)C1)C(C)C)NC(=O)OCC[S+]([O-])CC1(C)COC1 (some centres unmarked)", "assay": "protection from ferroptosis, PrestoBlue", "setting": "24 h, with: erastin 10 µM", "endpoint": "pEC50", "value": 5.86}
{"SMILES": "CCOc1cncc(-c2ccc(NC(=O)C3(c4ccnc(NS(=O)(=O)C5CC5)n4)CCOCC3)nc2)n1", "assay": "cell growth or viability, ATP luminescence", "setting": "72 h", "endpoint": "pIC50", "value": 6.29}
